Published values of several laboratories.
Every numbered part comes from another study and shows a few of its results, in no order. Substitutions count along the parent as printed.
Sequence of UniProt P62344 (whole entry, looked up): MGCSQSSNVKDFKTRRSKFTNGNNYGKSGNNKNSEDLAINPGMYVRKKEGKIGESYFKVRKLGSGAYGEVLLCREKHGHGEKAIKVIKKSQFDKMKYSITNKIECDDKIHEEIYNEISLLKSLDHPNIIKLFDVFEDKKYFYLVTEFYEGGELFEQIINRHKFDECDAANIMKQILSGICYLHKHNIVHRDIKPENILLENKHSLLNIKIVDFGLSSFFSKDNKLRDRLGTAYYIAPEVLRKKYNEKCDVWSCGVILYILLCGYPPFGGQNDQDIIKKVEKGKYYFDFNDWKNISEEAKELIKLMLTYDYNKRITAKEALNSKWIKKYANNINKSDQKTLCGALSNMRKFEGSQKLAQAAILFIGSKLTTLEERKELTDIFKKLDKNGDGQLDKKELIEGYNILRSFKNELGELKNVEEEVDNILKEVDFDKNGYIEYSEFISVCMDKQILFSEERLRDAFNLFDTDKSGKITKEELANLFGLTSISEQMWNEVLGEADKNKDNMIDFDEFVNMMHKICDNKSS
Sequence of UniProt P28223 (whole entry, looked up): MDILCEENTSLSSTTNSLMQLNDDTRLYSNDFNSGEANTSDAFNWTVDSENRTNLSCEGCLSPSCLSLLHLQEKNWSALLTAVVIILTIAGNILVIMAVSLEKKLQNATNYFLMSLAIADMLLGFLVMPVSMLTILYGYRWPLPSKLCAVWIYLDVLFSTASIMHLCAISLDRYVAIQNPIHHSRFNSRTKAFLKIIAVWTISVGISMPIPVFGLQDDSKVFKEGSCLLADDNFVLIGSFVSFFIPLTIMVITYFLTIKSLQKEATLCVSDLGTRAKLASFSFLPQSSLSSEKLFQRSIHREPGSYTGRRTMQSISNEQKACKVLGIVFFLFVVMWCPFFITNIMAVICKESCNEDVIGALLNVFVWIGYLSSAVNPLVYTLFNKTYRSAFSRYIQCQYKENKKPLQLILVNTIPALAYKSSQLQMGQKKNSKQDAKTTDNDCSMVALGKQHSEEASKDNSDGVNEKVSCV
Sequence of UniProt Q9UBE8 (whole entry, looked up): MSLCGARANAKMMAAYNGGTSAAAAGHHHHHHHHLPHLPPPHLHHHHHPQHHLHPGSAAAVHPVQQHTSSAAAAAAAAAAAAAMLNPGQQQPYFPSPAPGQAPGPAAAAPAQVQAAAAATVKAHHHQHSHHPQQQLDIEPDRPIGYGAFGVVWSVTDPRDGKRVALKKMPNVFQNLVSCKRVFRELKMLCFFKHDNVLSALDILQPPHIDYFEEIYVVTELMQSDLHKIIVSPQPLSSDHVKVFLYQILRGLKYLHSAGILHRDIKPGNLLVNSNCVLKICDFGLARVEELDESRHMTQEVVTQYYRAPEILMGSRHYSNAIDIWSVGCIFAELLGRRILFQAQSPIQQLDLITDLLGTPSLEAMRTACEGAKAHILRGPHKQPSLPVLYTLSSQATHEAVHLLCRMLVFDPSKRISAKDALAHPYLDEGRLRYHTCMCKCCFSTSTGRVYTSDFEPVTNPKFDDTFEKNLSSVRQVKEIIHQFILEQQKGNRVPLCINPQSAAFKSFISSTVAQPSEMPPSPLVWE
Sequence of UniProt P53667 (whole entry, looked up): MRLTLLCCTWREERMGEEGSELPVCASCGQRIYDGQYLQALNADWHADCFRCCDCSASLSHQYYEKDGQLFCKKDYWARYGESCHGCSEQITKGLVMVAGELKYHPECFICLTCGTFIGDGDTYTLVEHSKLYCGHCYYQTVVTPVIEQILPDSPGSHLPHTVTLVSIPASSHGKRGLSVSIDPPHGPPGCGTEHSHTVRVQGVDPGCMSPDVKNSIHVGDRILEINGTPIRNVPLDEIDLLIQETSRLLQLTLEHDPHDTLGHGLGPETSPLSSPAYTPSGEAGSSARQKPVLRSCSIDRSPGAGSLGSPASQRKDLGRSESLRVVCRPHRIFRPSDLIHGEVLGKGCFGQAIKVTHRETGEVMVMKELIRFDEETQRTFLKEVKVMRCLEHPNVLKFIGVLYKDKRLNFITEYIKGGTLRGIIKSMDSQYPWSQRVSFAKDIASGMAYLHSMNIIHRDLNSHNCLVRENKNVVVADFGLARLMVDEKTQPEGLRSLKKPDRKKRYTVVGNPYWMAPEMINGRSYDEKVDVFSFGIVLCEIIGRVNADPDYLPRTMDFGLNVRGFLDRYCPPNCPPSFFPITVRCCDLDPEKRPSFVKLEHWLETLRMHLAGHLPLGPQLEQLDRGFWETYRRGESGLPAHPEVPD
Sequence of UniProt P06213 (whole entry, looked up): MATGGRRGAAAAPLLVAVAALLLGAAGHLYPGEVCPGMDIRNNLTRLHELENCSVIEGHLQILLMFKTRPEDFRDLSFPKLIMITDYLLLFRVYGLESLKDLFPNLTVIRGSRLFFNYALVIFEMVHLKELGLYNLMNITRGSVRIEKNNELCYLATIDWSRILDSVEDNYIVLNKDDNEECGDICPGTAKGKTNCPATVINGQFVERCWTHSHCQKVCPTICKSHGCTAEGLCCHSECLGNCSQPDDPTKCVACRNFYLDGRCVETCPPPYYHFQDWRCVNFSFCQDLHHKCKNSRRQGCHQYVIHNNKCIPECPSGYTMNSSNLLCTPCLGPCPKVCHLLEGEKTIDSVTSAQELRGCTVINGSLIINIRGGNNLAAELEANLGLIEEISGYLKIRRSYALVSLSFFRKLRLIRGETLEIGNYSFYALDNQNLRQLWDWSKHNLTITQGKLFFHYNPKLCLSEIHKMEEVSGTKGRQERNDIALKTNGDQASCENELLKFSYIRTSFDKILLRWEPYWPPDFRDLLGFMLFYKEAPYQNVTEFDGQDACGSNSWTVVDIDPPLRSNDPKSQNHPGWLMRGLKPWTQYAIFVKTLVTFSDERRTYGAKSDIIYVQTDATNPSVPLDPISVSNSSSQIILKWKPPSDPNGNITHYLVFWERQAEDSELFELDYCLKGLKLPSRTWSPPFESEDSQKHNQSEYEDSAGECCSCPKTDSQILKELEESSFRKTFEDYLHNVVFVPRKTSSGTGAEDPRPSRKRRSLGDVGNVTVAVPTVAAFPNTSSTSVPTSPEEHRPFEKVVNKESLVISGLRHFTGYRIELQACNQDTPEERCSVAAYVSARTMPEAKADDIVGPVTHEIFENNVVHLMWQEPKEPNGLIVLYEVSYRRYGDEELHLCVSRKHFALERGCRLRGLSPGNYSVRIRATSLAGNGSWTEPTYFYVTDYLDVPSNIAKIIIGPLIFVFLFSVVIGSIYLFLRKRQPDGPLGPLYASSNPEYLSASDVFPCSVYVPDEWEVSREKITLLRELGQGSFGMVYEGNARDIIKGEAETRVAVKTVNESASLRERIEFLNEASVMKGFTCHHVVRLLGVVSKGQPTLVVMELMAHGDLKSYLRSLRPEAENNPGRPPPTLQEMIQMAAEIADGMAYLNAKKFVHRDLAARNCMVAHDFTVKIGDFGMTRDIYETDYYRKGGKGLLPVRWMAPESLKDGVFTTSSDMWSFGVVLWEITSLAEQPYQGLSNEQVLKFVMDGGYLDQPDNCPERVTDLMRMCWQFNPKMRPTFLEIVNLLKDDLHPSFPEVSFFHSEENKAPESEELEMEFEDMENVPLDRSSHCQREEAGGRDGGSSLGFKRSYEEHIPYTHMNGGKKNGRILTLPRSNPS

Study 1
Compound: N/C(=N\[N+](=O)[O-])N/N=C\c1ccc(-c2cccc([N+](=O)[O-])c2)o1
Effect on: enzyme activity
Action: inhibitor
Tested at: 0.5 µM
Reference: control
target | remaining activity
LIM domain kinase 1 (LIMK1, Homo sapiens, UniProt P53667) | 99.7%
Insulin receptor (INSR, Homo sapiens, UniProt P06213) | 92%
Serine/threonine-protein kinase NLK (NLK, Homo sapiens, UniProt Q9UBE8) | 103%

Study 2
Target: UDP-N-acetylglucosamine--peptide N-acetylglucosaminyltransferase 110 kDa subunit (OGT, Homo sapiens, UniProt O15294)
Effect on: binding
Method: phage display NGS
Form: peptide
Tested at: concentration not given
Notes: panning round 2
Reference: input library
Construct (O15294 1-1046): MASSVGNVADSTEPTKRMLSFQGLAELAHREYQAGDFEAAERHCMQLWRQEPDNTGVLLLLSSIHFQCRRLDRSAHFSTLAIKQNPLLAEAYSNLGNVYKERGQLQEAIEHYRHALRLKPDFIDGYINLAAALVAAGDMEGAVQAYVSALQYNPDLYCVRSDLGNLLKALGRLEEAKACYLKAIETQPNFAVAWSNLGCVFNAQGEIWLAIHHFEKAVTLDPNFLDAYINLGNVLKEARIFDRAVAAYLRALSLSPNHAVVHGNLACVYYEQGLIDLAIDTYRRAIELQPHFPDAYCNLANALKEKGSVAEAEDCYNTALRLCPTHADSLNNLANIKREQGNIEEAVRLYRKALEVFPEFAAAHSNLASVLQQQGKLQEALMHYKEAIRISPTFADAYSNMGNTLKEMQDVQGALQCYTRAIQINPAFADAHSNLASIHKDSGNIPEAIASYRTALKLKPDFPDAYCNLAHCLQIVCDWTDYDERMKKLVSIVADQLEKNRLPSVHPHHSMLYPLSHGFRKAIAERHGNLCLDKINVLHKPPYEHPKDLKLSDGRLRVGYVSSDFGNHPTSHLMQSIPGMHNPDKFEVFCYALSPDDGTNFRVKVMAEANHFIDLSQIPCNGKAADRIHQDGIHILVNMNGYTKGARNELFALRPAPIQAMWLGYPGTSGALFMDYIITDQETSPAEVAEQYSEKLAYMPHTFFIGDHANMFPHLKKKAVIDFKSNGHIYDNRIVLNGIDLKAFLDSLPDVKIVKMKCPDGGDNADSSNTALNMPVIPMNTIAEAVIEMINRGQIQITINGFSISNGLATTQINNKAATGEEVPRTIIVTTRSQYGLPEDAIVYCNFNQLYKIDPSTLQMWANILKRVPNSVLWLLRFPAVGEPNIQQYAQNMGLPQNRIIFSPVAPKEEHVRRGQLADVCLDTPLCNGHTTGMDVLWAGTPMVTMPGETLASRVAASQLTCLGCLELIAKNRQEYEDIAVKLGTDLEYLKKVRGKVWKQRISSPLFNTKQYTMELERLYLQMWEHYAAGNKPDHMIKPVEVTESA
Molecule | enrichment fold change
HQAHHNMQWFQQDHV | 5.24
QVFPPEYWIEYNMV | 7.4
WERHYHHWSTYTPSA | 5.19
AIYAQHPMHRTHIRI | 4.64
IPAPHQQGTHHGFIH | 6.18
EVHRDMRYGHAPHA | 4.53
TQFHNHHARDWSKQT | 5.92
DTRWVPSYQIKYSYM | 5.11

Study 3
Target: CCNE1, cyclin fold, Cln2 fusion (human)
Method: yeast growth competition, sequencing
Matrix: yeast
Notes: strong parent motif
Reference: not given
Direction: higher = stronger binding
Starting sequence: viral docking peptide; PGASRRLFGSSAD
Change | normalised enrichment score
F8L | 0.225
G2A | 0.982
F8A | -0.137
S4A | 2.14
G9A | 2.07
L7A | -0.423
R6A | 0.109
R5K | 0.378

Other studies, line by line
SMILES | target or system | assay | system | conditions | how to read | measurement | result
O=C1c2ccc(Nc3ccc(F)cc3F)cc2CCc2ccc(OC[C@H](O)CO)cc21 | 5-hydroxytryptamine receptor 2A (HTR2A, Homo sapiens, UniProt P28223) | cell-free assay | – | 10 µM | – | inhibition | 73.1%
O=C(Nc1cccnn1)N1CCC(=Cc2cccc(Oc3ccc(C(F)(F)F)cn3)c2)CC1 | Calcium-dependent protein kinase 1 (CDPK1, Plasmodium falciparum, UniProt P62344) | cell-free assay, competition with immobilised ligand | – | 1 µM | – | remaining binding | 93%
CN[C@@H]1C[C@H]2O[C@@](C)([C@@H]1OC)n1c3ccccc3c3c4c(c5c6ccccc6n2c5c31)C(=O)NC4 | normal-adjacent epithelial organoid | cell viability, CellTiter-Glo | human, patient-derived organoid | 1 µM | reference: DMSO | viability | 5.5%

For quick reference, copied from above (other studies, line by line):
SMILES | target or system | assay | system | conditions | how to read | measurement | result
O=C1c2ccc(Nc3ccc(F)cc3F)cc2CCc2ccc(OC[C@H](O)CO)cc21 | 5-hydroxytryptamine receptor 2A (HTR2A, Homo sapiens, UniProt P28223) | cell-free assay | – | 10 µM | – | inhibition | 73.1%
O=C(Nc1cccnn1)N1CCC(=Cc2cccc(Oc3ccc(C(F)(F)F)cn3)c2)CC1 | Calcium-dependent protein kinase 1 (CDPK1, Plasmodium falciparum, UniProt P62344) | cell-free assay, competition with immobilised ligand | – | 1 µM | – | remaining binding | 93%
CN[C@@H]1C[C@H]2O[C@@](C)([C@@H]1OC)n1c3ccccc3c3c4c(c5c6ccccc6n2c5c31)C(=O)NC4 | normal-adjacent epithelial organoid | cell viability, CellTiter-Glo | human, patient-derived organoid | 1 µM | reference: DMSO | viability | 5.5%
